Published values of several laboratories.
Parts stem from different laboratories: compare values within a part only.

Series 1 — method: protein binding microarray; molecule type: double-stranded DNA, one strand shown; matrix: in vitro; concentration: not given; relative to: not given; reading: higher = stronger binding; measurement: E-score
Target: Histone acetyltransferase KAT6A, both winged helices, GST fusion (KAT6A, Homo sapiens, UniProt Q92794, residues 1-181)
Setting: 8-mer, flanks averaged, mean of 2 arrays, mostly near background
Target sequence (chain): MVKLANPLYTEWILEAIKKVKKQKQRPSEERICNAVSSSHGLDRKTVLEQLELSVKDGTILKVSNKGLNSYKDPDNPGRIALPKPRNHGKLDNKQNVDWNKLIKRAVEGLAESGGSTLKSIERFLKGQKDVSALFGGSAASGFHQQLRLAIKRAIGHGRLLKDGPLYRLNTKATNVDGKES
CCAGGCGG: 0.111
CATGGTGG: -0.0536
GGGGCTGA: 0.0155
CTTATAGA: -0.0275
AATTGCCG: 0.284
GCCTAATA: -0.0018
CGACGGTA: 0.309
AGAGTACA: -0.0753
ATCTTGGG: -0.103

Series 2 — method: competition protein-binding microarray; molecule type: double-stranded DNA, one strand shown; matrix: in vitro; concentration: 2 µM; with: Cbf1 competitor, 0.05 µM; reading: higher = stronger binding; measurement: fluorescence intensity; all sequences stand within: … GTCTTGATTCGCTTGACGCTGCTG
Target: Phosphate system positive regulatory protein PHO4, full length, GST-tagged (PHO4, Saccharomyces cerevisiae, UniProt P07270, residues 1-312)
Setting: whole 60-bp probe, lowest competitor level
Construct (chain): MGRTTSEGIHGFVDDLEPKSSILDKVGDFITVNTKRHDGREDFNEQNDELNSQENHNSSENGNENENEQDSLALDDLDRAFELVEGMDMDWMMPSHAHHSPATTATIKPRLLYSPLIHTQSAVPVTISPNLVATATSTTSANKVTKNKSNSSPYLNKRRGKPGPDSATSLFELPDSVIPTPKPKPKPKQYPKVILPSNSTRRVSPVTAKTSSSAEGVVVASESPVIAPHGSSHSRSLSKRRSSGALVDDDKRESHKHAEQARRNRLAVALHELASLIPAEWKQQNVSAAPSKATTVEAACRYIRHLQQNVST
CAATGGTTACTTCGACACATGCCACTAAGACAATAC: 10800 a.u.
AAATTACTAAGTTGTCACGAAACTTACCCCGTATGA: 3330 a.u.
AAAAAATGTGAATTGCACATGCCCAGCGCGCTCGCA: 9210 a.u.
ATTACGAGTTTTTCATCCGTGATGGCGATGATTTGG: 3810 a.u.
AAGAAAGAGTTGGTCGTCGTGCCGATAACTTGAGAG: 7170 a.u.
TGCGCAACAACTTGTAACGTGGGTGTATGTCTAGAA: 10100 a.u.
AAAGGGCGAAGTTACACCGTTTTCAAAGGTGGAGTG: 3980 a.u.
CATACCCAACCTTGTCACTCAACTTAAGATATTTGT: 3510 a.u.

Series 3 — method: RNA Bind-n-Seq; molecule type: RNA; matrix: in vitro; concentration: not given; relative to: input RNA pool; reading: higher = stronger binding; measurement: bound/input enrichment
Target: RING finger protein unkempt homolog, zinc fingers 1-6, GST-SBP tag (UNK, Homo sapiens, UniProt Q9C0B0, residues 30-357)
UniProt Q9C0B0, sequence (30-357, looked up): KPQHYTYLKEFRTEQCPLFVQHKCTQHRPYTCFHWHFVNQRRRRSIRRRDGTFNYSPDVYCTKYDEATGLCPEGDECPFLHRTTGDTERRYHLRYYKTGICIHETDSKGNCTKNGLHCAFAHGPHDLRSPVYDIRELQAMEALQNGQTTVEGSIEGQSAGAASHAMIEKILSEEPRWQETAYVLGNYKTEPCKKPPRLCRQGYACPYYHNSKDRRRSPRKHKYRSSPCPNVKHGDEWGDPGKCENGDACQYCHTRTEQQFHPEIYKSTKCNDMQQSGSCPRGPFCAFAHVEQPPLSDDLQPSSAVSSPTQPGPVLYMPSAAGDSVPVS
Setting: RNA with constant flanks, human and mouse sites, ends assumed
All sequences stand within: GGGAGUUCUACAGUCCGACGAUC … CAACAGAGGAUUGAGCAUCA
GGUAAGUGGGGGCAAGUGGGGGCAAGGGGACAUAUCAUUGUGACAACUUUUUUGAUAUUUACUAGAAAUGAUGCAAUAUAUCCUUUCUGAGAUAUUUACAGUAUUAUUAAAGGGUUGGGC: 4.66 ratio
CUGAUGUUCAUUCAGAGGAUAAAAGUCAUGCUCCUUUUAGCCCAGAUAAUGUAAAUCAAAAAGUUGUCCAUGACUAUCCGGAGGUUUGUUCACCUGUCAUUAGUACAUCGCAUGCAUCAU: 1.12 ratio
GUUCACCUGCAGCAGCCAACUUCUAGUCCUCAGGACAGCAGUAGCUUUGAAUCCAGAGGAAGUGAUGGUGGAAGCAUGCUUAAAGCUCUGCCUUUGAAGAGUAGUCUUACUCCAAGUUCU: 0.179 ratio
GCUACUUUAACCUAUGAUAAUUAUUUACAAAAUUUUAACACUAACCAAACAAUGCAGAUCUUAGGGAUGAUUAAAGGCAGCAUUUGAUGAUAGCAGACAUUGUUACAAGGACAUGGUGAG: 7.13 ratio
GGUUUUAUACACACCAGUUCCCCAGUAAAUGCAAAUUUAACAAGAAAAUCAGACAUGUCAUAUGUUCAAAAUGCUCAUGGCAAACAAUCAUUUUGCAUUCCUGCAAAUAAAAUUGUUUUA: 0.452 ratio

Single results of other studies
PhoQ, residues 284 288 289 292 302 303 AMDMFI  fold induction (PhoP, residues 12 14 15 18 19 LQHIR (Escherichia coli, UniProt P23836); Sort-seq, measured: YFP reporter; E. coli; PhoQ-PhoP variant library, with: 10 µM Mg2+; relative to: high Mg2+ state, higher = stronger signaling): 1.16

For quick reference, copied from above (series 1):
GGGGCTGA: 0.0155
CTTATAGA: -0.0275
AATTGCCG: 0.284
GCCTAATA: -0.0018
